Results gathered from unrelated publications.
Several values in a cell are separate wells, animals, samples, runs or records. Numbers after ± are the reported error.
B1: DDX1; sequence looked up; chain MAAFSEMGVMPEIAQAVEEMDWLLPTDIQAESIPLILGGGDVLMAAETGSGKTGAFSIPVIQIVYETLKDQQEGKKGKTTIKTGASVLNKWQMNPYDRGSAFAIGSDGLCCQSREVKEWHGCRATKGLMKGKHYYEVSCHDQGLCRVGWSTMQASLDLGTDKFGFGFGGTGKKSHNKQFDNYGEEFTMHDTIGCYLDIDKGHVKFSKNGKDLGLAFEIPPHMKNQALFPACVLKNAELKFNFGEEEFKFPPKDGFVALSKAPDGYIVKSQHSGNAQVTQTKFLPNAPKALIVEPSRELAEQTLNNIKQFKKYIDNPKLRELLIIGGVAARDQLSVLENGVDIVVGTPGRLDDLVSTGKLNLSQVRFLVLDEADGLLSQGYSDFINRMHNQIPQVTSDGKRLQVIVCSATLHSFDVKKLSEKIMHFPTWVDLKGEDSVPDTVHHVVVPVNPKTDRLWERLGKSHIRTDDVHAKDNTRPGANSPEMWSEAIKILKGEYAVRAIKEHKMDQAIIFCRTKIDCDNLEQYFIQQGGGPDKKGHQFSCVCLHGDRKPHERKQNLERFKKGDVRFLICTDVAARGIDIHGVPYVINVTLPDEKQNYVHRIGRVGRAERMGLAISLVATEKEKVWYHVCSSRGKGCYNTRLKEDGGCTIWYNEMQLLSEIEEHLNCTISQVEPDIKVPVDEFDGKVTYGQKRAAGGGSYKGHVDILAPTVQELAALEKEAQTSFLHLGYLPNQLFRTF
B2: RNA helicase DHX15; sequence looked up; chain MSKRHRLDLGEDYPSGKKRAGTDGKDRDRDRDREDRSKDRDRERDRGDREREREKEKEKELRASTNAMLISAGLPPLKASHSAHSTHSAHSTHSTHSAHSTHAGHAGHTSLPQCINPFTNLPHTPRYYDILKKRLQLPVWEYKDRFTDILVRHQSFVLVGETGSGKTTQIPQWCVEYMRSLPGPKRGVACTQPRRVAAMSVAQRVADEMDVMLGQEVGYSIRFEDCSSAKTILKYMTDGMLLREAMNDPLLERYGVIILDEAHERTLATDILMGVLKEVVRQRSDLKVIVMSATLDAGKFQIYFDNCPLLTIPGRTHPVEIFYTPEPERDYLEAAIRTVIQIHMCEEEEGDLLLFLTGQEEIDEACKRIKREVDDLGPEVGDIKIIPLYSTLPPQQQQRIFEPPPPKKQNGAIGRKVVVSTNIAETSLTIDGVVFVIDPGFAKQKVYNPRIRVESLLVTAISKASAQQRAGRAGRTRPGKCFRLYTEKAYKTEMQDNTYPEILRSNLGSVVLQLKKLGIDDLVHFDFMDPPAPETLMRALELLNYLAALNDDGDLTELGSMMAEFPLDPQLAKMVIASCDYNCSNEVLSITAMLSVPQCFVRPTEAKKAADEAKMRFAHIDGDHLTLLNVYHAFKQNHESVQWCYDNFINYRSLMSADNVRQQLSRIMDRFNLPRRSTDFTSRDYYINIRKALVTGYFMQVAHLERTGHYLTVKDNQVVQLHPSTVLDHKPEWVLYNEFVLTTKNYIRTCTDIKPEWLVKIAPQYYDMSNFPQCEAKRQLDRIIAKLQSKEYSQY
B3: CYR61; sequence looked up; chain TCPAACHCPLEAPKCAPGVGLVRDGCGCCKVCAKQLNEDCSKTQPCDHTKGLECNFGASSTALKGICRAQSEGRPCEYNSRIYQNGESFQPNCKHQCTCIDGAVGCIPLCPQELSLPNLGCPNPRLVKVTGQCCEEWVCDEDSIKDPMEDQDGLLGKELGFDASEVELTRNNELIAVGKGSSLKRLPVFGMEPRILYNPLQGQKCIVQTTSWSQCSKTCGTGISTRVTNDNPECRLVKETRICEVRPCGQPVYSSLKKGKKCSKTKKSPEPVRFTYAGCLSVKKYRPKYCGSCVDGRCCTPQLTRTVKMRFRCEDGETFSKNVMMIQSCKCNYNCPHANEAAFPFYRLFNDIHKFRD
B4: dermcidin; sequence looked up; chain YDPEAASAPGSGNPCHEASAAQKENAGEDPGLARQAPKPRKQRSSLLEKGLDGAKKAVGGLGKLGKDAVEDLESVGKGAVHDVKDVLDSVL
B5: CSK; sequence looked up; chain SAIQAAWPSGTECIAKYNFHGTAEQDLPFCKGDVLTIVAVTKDPNWYKAKNKVGREGIIPANYVQKREGVKAGTKLSLMPWFHGKITREQAERLLYPPETGLFLVRESTNYPGDYTLCVSCDGKVEHYRIMYHASKLSIDEEVYFENLMQLVEHYTSDADGLCTRLIKPKVMEGTVAAQDEFYRSGWALNMKELKLLQTIGKGEFGDVMLGDYRGNKVAVKCIKNDATAQAFLAEASVMTQLRHSNLVQLLGVIVEEKGGLYIVTEYMAKGSLVDYLRSRGRSVLGGDCLLKFSLDVCEAMEYLEGNNFVHRDLAARNVLVSEDNVAKVSDFGLTKEASSTQDTGKLPVKWTAPEALREKKFSTKSDVWSFGILLWEIYSFGRVPYPRIPLKDVVPRVEKGYKMDAPDGCPPAVYEVMKNCWHLDAAMRPSFLQLREQLEHIKTHELHL
B6: AKAP8L; sequence looked up; chain MSYTGFVQGSETTLQSTYSDTSAQPTCDYGYGTWNSGTNRGYEGYGYGYGYGQDNTTNYGYGMATSHSWEMPSSDTNANTSASGSASADSVLSRINQRLDMVPHLETDMMQGGVYGSGGERYDSYESCDSRAVLSERDLYRSGYDYSELDPEMEMAYEGQYDAYRDQFRMRGNDTFGPRAQGWARDARSGRPMASGYGRMWEDPMGARGQCMSGASRLPSLFSQNIIPEYGMFQGMRGGGAFPGGSRFGFGFGNGMKQMRRTWKTWTTADFRTKKKKRKQGGSPDEPDSKATRTDCSDNSDSDNDEGTEGEATEGLEGTEAVEKGSRVDGEDEEGKEDGREEGKEDPEKGALTTQDENGQTKRKLQAGKKSQDKQKKRQRDRMVERIQFVCSLCKYRTFYEDEMASHLDSKFHKEHFKYVGTKLPKQTADFLQEYVTNKTKKTEELRKTVEDLDGLIQQIYRDQDLTQEIAMEHFVKKVEAAHCAACDLFIPMQFGIIQKHLKTMDHNRNRRLMMEQSKKSSLMVARSILNNKLISKKLERYLKGENPFTDSPEEEKEQEEAEGGALDEGAQGEAAGISEGAEGVPAQPPVPPEPAPGAVSPPPPPPPEEEEEGAVPLLGGALQRQIRGIPGLDVEDDEEGGGGAP

Molecule	target or system	assay	test system	setting	how to read	measurement	result
hexaarginine	PorA peptide pore	peptide binding, planar bilayer single-channel recording		0.5 µM, pH 7.4, -10 mV, cis side, 150 mM KCl		kon	3.21e+07 ± 3e+06 M⁻¹ s⁻¹
polymyxin B		calcein leakage	DOPC/DOPG/CHOL liposomes	concentration not given, added: 40 mM CaCl2		leakage time constant	82 ± 38 min
lead	U87 glioblastoma	CCK-8		1 µM, 24 h, unit not given	relative to: untreated control	viability	0.55
aspterric acid		hypocotyl length	Arabidopsis thaliana Col-0 seeds	12.5 µg/mL		inhibition	95.2%
B1 (DDX1)		peptide binding, SILAC pull-down		concentration not given	relative to: non-acetylated over acetylated NIT1 peptide	log2 fold change	0.584
insulin human		measured: CDK5R1 mRNA	uninfected mouse, brain	i.p., dose not given	relative to: PBS	fold change	1.2
NSGEETIGE	Mamu-B*08301 MHC class I	peptide binding	peptide, Chinese rhesus macaque			IC50	> 20 µM
(−)-antroquinonol A	ASPC1	cytotoxicity, MTS		72 h		IC50	> 25 µM
CCT3		peptide binding, SILAC pull-down		concentration not given	relative to: non-acetylated over acetylated NIT1 peptide	log2 fold change	1.86
nonaarginine	PorA peptide pore	peptide binding, planar bilayer single-channel recording		0.5 µM, pH 7.4, +10 mV, trans side, 150 mM KCl		koff	28.6 ± 3 s⁻¹
B2 (RNA helicase DHX15)		peptide binding, SILAC pull-down		concentration not given	relative to: non-acetylated over acetylated NIT1 peptide	log2 fold change	1.08
GWTLNSAGYLLGPHAVDNHRSFNDKHGFT-NH2 (C-amide)			peptide, mouse, DSS-induced colitis	ip, 1.5 µM		colon length	5.9 cm and 6.1 cm
BUB3		peptide binding, SILAC pull-down		concentration not given	relative to: non-acetylated over acetylated NIT1 peptide	log2 fold change	-1.63
cisplatin	MDA-MB-231					IC50	7.5 ± 2 µM
RTLEDLLMGT	ASPC1 (HLA-A2− HPV−)	111In release	peptide	concentration not given, 16 h, E:T 25:1, IVS 5, added: peptide-generated T-cell line		specific lysis	0.5% and 1.1%
B3 (CYR61)		peptide binding, SILAC pull-down		concentration not given	relative to: non-acetylated over acetylated NIT1 peptide	log2 fold change	-0.411
RPVFSSPPS	Mamu-B*08301 MHC class I	peptide binding	peptide, Chinese rhesus macaque			IC50	> 20 µM
colistin	Aspergillus fumigatus		conidia	10 µM, added: caspofungin 0.2 µg/mL	relative to: caspofungin alone	CFU relative to caspofungin alone	2.21 and 1.51 and 2.05
mitragynine		substrate	human liver S9	10 min, 1		Vmax	0.087 nmol/min/mg protein
RKAKIIKDY	Mamu-B*08301 MHC class I	peptide binding	peptide, Chinese rhesus macaque			IC50	> 20 µM
pertussis toxin		immunostaining, measured: p-PKC	humanized UT (+/h+) mice, SAH model, middle cerebral artery	dose not given		phospho-PKC level	21.1 MFI and 15.1 MFI and 16.7 MFI
GWTLNSAGYLLGPRRIDHLLMIKEMPIARGREEAPGA / YAVDNHRSFNDKHGFT-NH2 (C-amide)			Arrb2 intestinal cKO mice, DSS colitis	ip, 3 µM, 2% DSS		colon length	5.8 cm and 5.2 cm and 5.1 cm and 6 cm and 5.4 cm
oseltamivir carboxylate	Influenza B virus	viral replication, visual CPE score	MDCK			EC50	4 µM
B4 (dermcidin)		peptide binding, SILAC pull-down		concentration not given	relative to: non-acetylated over acetylated NIT1 peptide	log2 fold change	-0.64
ETTLKSF	Plasmodium falciparum	merozoite invasion	peptide, 3D7 wild type	saturating concentrations		maximal inhibition	≤ 48%
B5 (CSK)		peptide binding, SILAC pull-down		concentration not given	relative to: non-acetylated over acetylated NIT1 peptide	log2 fold change	-0.669
KISEYRHYC	HPV16 E6-specific T-cell line	ELISA	peptide, supernatant	concentration not given, 24 h, added: peptide-pulsed autologous B cells		IFN-γ release	455 pg/mL
B6 (AKAP8L)		peptide binding, SILAC pull-down		concentration not given	relative to: non-acetylated over acetylated NIT1 peptide	log2 fold change	-0.27
KLPQLCTEL	HN-4 (HLA-A2+ HPV+)	111In release	peptide	concentration not given, 16 h, E:T 25:1 IVS 5, added: peptide-generated T-cell line		specific lysis	21.2%
oseltamivir carboxylate	Influenza A virus H1N1	cytopathic effect, visual CPE score	MDCK			EC50	1.5 µM

Excerpt of the above:
Molecule	target or system	assay	test system	setting	how to read	measurement	result
BUB3		peptide binding, SILAC pull-down		concentration not given	relative to: non-acetylated over acetylated NIT1 peptide	log2 fold change	-1.63
cisplatin	MDA-MB-231					IC50	7.5 ± 2 µM
RTLEDLLMGT	ASPC1 (HLA-A2− HPV−)	111In release	peptide	concentration not given, 16 h, E:T 25:1, IVS 5, added: peptide-generated T-cell line		specific lysis	0.5% and 1.1%
